Measured values collected from several papers.
Values joined by “and” are separate records of one study, mostly repeats; a detail may differ. Numbers after ± are the reported error.

Cc1[nH]nc2c1N=C(c1ccccc1Cl)c1cnc(N3CCOCC3)cc1N2 gave an inhibition of 4% (androgen receptor, human; radioligand binding; 10 µM, together with: testosterone).
CC(=O)NCC1CCCCN1c1nc(N(C)CCc2ncc(C)s2)nc(N2CC3C(CCOc4cc(-c5scnc5C)ccc4CNC(=O)[C@@H]4C[C@@H](O)CN4C(=O)[C@@H](NC(=O)C4(F)CC4)C(C)(C)C)C3C2)n1 (some centres unmarked) gave a cooperativity alpha of 220 (VHL-elongin C-elongin B and BRD9; SPR; immobilized VHL-elongin C-elongin B; reference: binary KD over ternary KD).
With O=C(N/N=C/c1cc[n+](Cc2ccccc2)c2ccccc12)c1cccc(C(=O)N/N=C/c2cc[n+](Cc3ccccc3)c3ccccc23)n1 the ΔTm was 11.1 ± 0.1 °C (MYC parallel G4 DNA; FRET melting; 1 µM, DNA 0.2 µM, together with: duplex DNA competitor 10 µM).
For C=CC(=O)N1[C@@H](c2ccc3c(c2)OCO3)c2[nH]c3ccccc3c2C[C@H]1C(=O)N1CCN(C)CC1, “log2 fold change” read 0.07 (CCNE1 WT-3xFLAG:CDK2 complex; co-IP TMT proteomics, measured: RBL1; HEK-293T; 20 µM, 6 h; reference: DMSO).
For C=CC(=O)Nc1cccc(Cn2ncc3cnc(Nc4cnn(CCOC)c4)nc32)c1, “percent of control” read 100% (DCAMKL2 human; binding, KINOMEscan; 100 nM; lower = stronger binding).
The ΔTm of O=C(N/N=C/c1cc[n+](CC2CC2)c2ccccc12)c1cc(C(=O)N/N=C/c2cc[n+](CC3CC3)c3ccccc23)ncn1 is reported as 1.2 ± 0.8 °C (hp2 hairpin duplex DNA; FRET melting; 1 µM).
CC(=O)NCC1CCCCN1c1nc(N2CCN(c3nnc[nH]3)CC2)nc(N2CC3C(CCOc4cc(-c5scnc5C)ccc4CNC(=O)[C@@H]4C[C@@H](O)CN4C(=O)[C@@H](NC(=O)C4(F)CC4)C(C)(C)C)C3C2)n1 (some centres unmarked) gave a cooperativity alpha of 10 (VHL-elongin C-elongin B and BRD9; SPR; immobilized VHL-elongin C-elongin B; reference: binary KD over ternary KD).
The ΔTm of C[n+]1ccc(/C=N/NC(=O)c2ccc3ccc(C(=O)N/N=C/c4cc[n+](C)c5ccccc45)nc3n2)c2ccccc21 is reported as 0.4 ± 0.3 °C (hp2 hairpin duplex DNA; FRET melting; 1 µM, together with: ds26 10 µM).
Nc1ncc(-c2cc(-c3cnn(CC(F)(F)F)c3)ncc2F)nc1C(=O)NC1CNCC(F)C1 (centres unmarked) has a remaining binding of 100% (EPHA5; KINOMEscan; 1 µM; reference: DMSO control).
With CC(=O)NCC1CCCCN1c1nc(NCC2Cc3ccccc3O2)nc(N2CC3C(CCOc4cc(-c5scnc5C)ccc4CNC(=O)C4CC(O)CN4C(=O)C(NC(=O)C4(F)CC4)C(C)(C)C)C3C2)n1 (centres unmarked) the cooperativity alpha was 219 (VHL-elongin C-elongin B and BRD9; SPR; immobilized VHL-elongin C-elongin B; reference: binary KD over ternary KD).
C[n+]1ccc(/C=N/NC(=O)c2cccc(C(=O)N/N=C/c3cc[n+](C)cc3)n2)cc1 gave a ΔTm of 0.6 ± 0.4 °C (MYC parallel G4 DNA; FRET melting; 1 µM, DNA 0.2 µM).
C=CC(=O)Nc1cc(-c2nn(C3CCN(CCNC(=O)[C@H](C)CCC45CC6CC(CC(C6)C4)C5)CC3)c3ncnc(N)c23)ccc1Oc1ccccc1 gave an inhibition of 13.1% (MAP2K1 and MAP2K2; KiNativ; 2 µM).
Fc1ccc(Nc2nc(NC3CCCCC3)c3ccccc3n2)cc1F gave a pIC50 of 5.8 (β2AR/β1AR ECL2/3 chimera; β-arrestin2 recruitment, antagonist, BRET; together with: isoprenaline 1 µM).
For CCCCCCCCCCCC(=O)N[C@@H](CO)C[C@@H](O)c1cccc(CCCCCC)c1, the sphingomyelin level was 128000 pmol/sample and 89200 pmol/sample and 98000 pmol/sample (CERT; HPLC-MS/MS, measured: SM 24:1; HeLa; 1 µM, 24 h).
O=C(N/N=C/c1ccc2c(ccc[n+]2Cc2ccccc2)c1)c1ccc2ccc(C(=O)N/N=C/c3ccc4c(ccc[n+]4Cc4ccccc4)c3)nc2n1 gave a ΔTm of 0.9 ± 0.1 °C (hp2 hairpin duplex DNA; FRET melting; 1 µM, together with: ds26 10 µM).
The Stern-Volmer constant of CNC(NN=Cc1ccc([N+](=O)[O-])o1)=[S+][Au-][Cl] is reported as 18000 M⁻¹ (calf thymus DNA; ethidium bromide displacement, fluorescence quenching; up to 50 µM).
CCCCCC(O)/C=C/C=O (centres unmarked) gave an IC50 of 96 µM and 87 µM and 98 µM and 76 µM and 124 µM and 68 µM and 102 µM (proteome cysteines; IA-probe labelling, competitive isoTOP-ABPP; MDA-MB-231 proteome).
For O=C(Nc1ccccc1)c1ccc(Nc2nnc(-c3ccc(O)cc3)c3ccccc23)cc1, the licking time was 0 s (TRPV1; nocifensive response; mouse; intraplantar, 1 µg).
For c1ccc(-c2n[nH]cc2-c2ccnc3ccccc23)nc1, “log2 fold change” read -0.46 (KIN28 (Candida albicans); kinase binding, MIB/MS competition; Candida albicans lysate; 1 µM; reference: DMSO).
With CC(=O)NCCN(CC(=O)NCCN(CC(=O)NCCN(CC(=O)NCCC(N)=O)C(=O)C[C@@H](N)Cc1ccccc1)C(=O)C[C@@H](N)CCCNC(=N)N)C(=O)C[C@@H](N)CCCNC(=N)N the melting temperature was 61 ± 0.1 °C (HIV-1 TAR RNA; RNA thermal stability, UV melting; 1 µM, pH 7.5, together with: 1 µM TAR RNA).
O=C(N/N=C/c1ccc2c(ccc[n+]2Cc2ccccc2)c1)c1ccc2ccc3ccc(C(=O)N/N=C/c4ccc5c(ccc[n+]5Cc5ccccc5)c4)nc3c2n1 has a ΔTm of 15.4 ± 1.2 °C (MYC parallel G4 DNA; FRET melting; 1 µM, DNA 0.2 µM, together with: duplex DNA competitor 10 µM).
For O=C(CCCCCOc1ccc2ccccc2c1)N[C@@H](CO)C[C@@H](O)c1ccc(-c2ccccc2)cc1, the sphingomyelin level was 619000 pmol and 667000 pmol and 673000 pmol (CERT; HPLC-MS/MS, measured: SM C16; HeLa; 1 µM, 24 h).
O=C(N/N=C/c1ccc2c(ccc[n+]2Cc2ccccc2)c1)c1cccc(C(=O)N/N=C/c2ccc3c(ccc[n+]3Cc3ccccc3)c2)n1 gave a ΔTm of 2.2 ± 0.4 °C (hp2 hairpin duplex DNA; FRET melting; 1 µM, together with: ds26 10 µM).
For CCCCCCc1cccc([C@H](O)C[C@H](CO)NC(=O)CCCCCCCCCCBr)c1, the sphingomyelin level was 959000 pmol/sample and 945000 pmol/sample and 728000 pmol/sample (CERT; HPLC-MS/MS, measured: total sphingomyelin; HeLa; 1 µM, 24 h).
The binding constant of CCNC(=S)NN=Cc1c2ccccc2cc2ccccc12.Cc1ccc(C(C)C)cc1.[Cl-].[Cl-].[Ru+2] is reported as 282000 M⁻¹ (calf thymus DNA; ethidium bromide displacement; 308 K).
CC[n+]1cccc2cc(/C=N/NC(=O)c3cccc(C(=O)N/N=C/c4ccc5c(ccc[n+]5CC)c4)n3)ccc21 has a ΔTm of 8.7 ± 1.9 °C (MYC parallel G4 DNA; FRET melting; 1 µM, DNA 0.2 µM).
